Assay results gathered from unrelated publications.
Protocols differ between the studies behind these lines. ± marks the error that the study gave.
ISOC2: Isochorismatase domain-containing protein 2 (ISOC2, Homo sapiens, UniProt Q96AB3)
Chain of UniProt Q96AB3 (whole entry, looked up): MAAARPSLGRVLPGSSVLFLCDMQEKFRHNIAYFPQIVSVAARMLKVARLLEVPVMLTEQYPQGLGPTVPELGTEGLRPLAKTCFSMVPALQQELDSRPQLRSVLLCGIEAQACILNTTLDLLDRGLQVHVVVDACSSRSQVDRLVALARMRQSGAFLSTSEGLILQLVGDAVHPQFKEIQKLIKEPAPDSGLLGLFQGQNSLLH
DRD2: D(2) dopamine receptor (DRD2, Homo sapiens, UniProt P14416)
Chain of UniProt P14416 (whole entry, looked up): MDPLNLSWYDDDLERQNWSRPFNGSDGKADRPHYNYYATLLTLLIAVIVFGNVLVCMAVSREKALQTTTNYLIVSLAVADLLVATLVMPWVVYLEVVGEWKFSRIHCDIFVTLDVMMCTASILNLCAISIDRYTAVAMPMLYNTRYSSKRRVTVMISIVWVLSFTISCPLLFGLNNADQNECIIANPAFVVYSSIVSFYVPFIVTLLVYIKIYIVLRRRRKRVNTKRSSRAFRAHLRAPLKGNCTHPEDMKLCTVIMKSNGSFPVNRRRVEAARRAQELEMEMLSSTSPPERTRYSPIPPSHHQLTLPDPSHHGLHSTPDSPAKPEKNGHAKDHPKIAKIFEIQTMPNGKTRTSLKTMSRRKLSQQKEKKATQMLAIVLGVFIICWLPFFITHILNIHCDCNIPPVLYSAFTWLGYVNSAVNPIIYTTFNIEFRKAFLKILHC
Chain of UniProt P34968 (whole entry, looked up): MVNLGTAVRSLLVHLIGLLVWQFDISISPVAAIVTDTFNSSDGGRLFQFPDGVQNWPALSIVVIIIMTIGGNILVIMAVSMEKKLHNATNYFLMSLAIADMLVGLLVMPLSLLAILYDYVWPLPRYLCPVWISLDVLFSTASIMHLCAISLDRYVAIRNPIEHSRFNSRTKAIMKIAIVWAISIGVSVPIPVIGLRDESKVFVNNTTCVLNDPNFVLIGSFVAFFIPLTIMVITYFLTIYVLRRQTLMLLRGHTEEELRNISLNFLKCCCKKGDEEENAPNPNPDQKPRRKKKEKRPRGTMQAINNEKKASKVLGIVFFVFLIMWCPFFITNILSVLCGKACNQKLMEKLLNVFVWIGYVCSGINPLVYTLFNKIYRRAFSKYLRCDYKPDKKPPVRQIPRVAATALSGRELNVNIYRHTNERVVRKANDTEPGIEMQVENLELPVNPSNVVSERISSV
Chain of UniProt Q00534 (whole entry, looked up): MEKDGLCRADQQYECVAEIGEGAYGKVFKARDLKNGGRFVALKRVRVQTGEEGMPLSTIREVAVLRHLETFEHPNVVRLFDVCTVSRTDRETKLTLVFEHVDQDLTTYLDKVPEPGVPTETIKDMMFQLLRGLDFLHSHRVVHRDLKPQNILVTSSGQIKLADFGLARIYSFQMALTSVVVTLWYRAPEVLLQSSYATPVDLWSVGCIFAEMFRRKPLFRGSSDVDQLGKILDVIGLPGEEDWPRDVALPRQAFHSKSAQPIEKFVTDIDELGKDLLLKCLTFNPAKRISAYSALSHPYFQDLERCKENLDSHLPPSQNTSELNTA
Chain of UniProt P34995 (whole entry, unmodified, looked up): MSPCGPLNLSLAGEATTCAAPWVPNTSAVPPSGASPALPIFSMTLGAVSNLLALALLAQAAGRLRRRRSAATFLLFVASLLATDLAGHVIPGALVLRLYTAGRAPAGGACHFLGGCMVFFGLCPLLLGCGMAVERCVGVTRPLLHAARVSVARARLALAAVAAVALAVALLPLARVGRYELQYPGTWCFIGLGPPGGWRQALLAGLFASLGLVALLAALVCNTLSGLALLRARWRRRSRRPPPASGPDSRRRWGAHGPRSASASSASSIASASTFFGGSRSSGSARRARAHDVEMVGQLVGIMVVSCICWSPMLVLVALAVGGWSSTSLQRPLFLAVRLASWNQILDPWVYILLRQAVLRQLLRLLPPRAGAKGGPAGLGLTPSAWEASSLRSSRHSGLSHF
Chain of UniProt P02763 (whole entry, looked up): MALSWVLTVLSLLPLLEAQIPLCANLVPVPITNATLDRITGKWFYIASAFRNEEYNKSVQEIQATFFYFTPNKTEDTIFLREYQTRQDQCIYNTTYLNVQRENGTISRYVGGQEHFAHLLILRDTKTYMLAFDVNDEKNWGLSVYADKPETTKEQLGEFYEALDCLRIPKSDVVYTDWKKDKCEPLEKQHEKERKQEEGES

| Structure (SMILES) | target | assay | test system | setting | quantity | value |
| --- | --- | --- | --- | --- | --- | --- |
| Nc1nc(-c2ccc(Cl)c(S(N)(=O)=O)c2)cs1 | CA2 (Homo sapiens, UniProt P00918) | binding, thermal shift |  | pH 7.0, 25 °C | Kd | 0.29 µM |
| O=C(CCCCCCC(=O)Nc1ccc([C@H]2O[C@@H](CSc3nc(-c4ccccc4)c(-c4ccccc4)o3)C[C@@H](c3ccc(CO)cc3)O2)cc1)NO | ISOC2 | inhibitor, competition pulldown | SW620 and MV4-11 lysate | 1 h | Kd | > 30.2 µM |
| COc1ccccc1OCCNCC(O)COc1cccc2[nH]c3ccccc3c12 (stereo not shown) | Alpha-1-acid glycoprotein 1, F1/S variants (ORM1, Homo sapiens, UniProt P02763) | competitive inhibitor, ultrafiltration |  | 15 min, 37 °C, with: [3H]tamsulosin | Ki | 5.06 µM |
| Cc1ccc(NS(=O)(=O)c2c(C)[nH]c(C)c2C(=O)N2CCC(F)(F)C2)nc1Br | DRD2 |  |  |  | IC50 | > 100 µM |
| CC(C)[C@H](C)CC[C@@H](C)[C@H]1CC[C@H]2[C@@H]3CC=C4C[C@@H](O)CC[C@]4(C)[C@H]3CC[C@]12C | CYP125 ancestral reconstruction | UV-Vis difference spectra |  | Morrison fit, fitted enzyme | Kd | 1.5 ± 3.6 µM |
| CCCCCCCCCCCCCCCCCCc1ccc(O)cc1 | Albumin (ALB, Homo sapiens, UniProt P02768) | modified Stern–Volmer | PBS | 27 °C | Kb | 23700 µM |
| Cc1nn2c(N3CCN(CCO)CC3)cc(-c3ccccc3)nc2c1-c1ccccc1 | GTPase KRas, with SOS1 (KRAS, Homo sapiens, UniProt P01116) | SOS-mediated GDP release |  |  | EC50 | 5.3 ± 2 µM |
| CN(C)Cc1c(C(=O)NCCOc2ccc(C(=O)NO)cc2)oc2ccccc12 | ISOC2 | inhibitor, competition pulldown | SW620 and MV4-11 lysate | 1 h | Kd | > 30.2 µM |
| CCN(CC)C(=O)c1c(C)[nH]c(C)c1S(=O)(=O)Nc1ccc(C(F)(F)F)c(Cl)c1 | DRD2 |  |  |  | IC50 | > 100 µM |
| C=CC(=O)N1CCN(c2nc(OC[C@@H]3CCCN3C)nc3c(F)c(-c4nc(N)cc(C)c4C(F)(F)F)c(Cl)cc23)[C@@H](C)C1 | GTPase KRas, GDP-bound (KRAS, Homo sapiens, UniProt P01116, Q61H) | binding, surface plasmon resonance |  |  | Kd | 0.857 ± 0.094 µM |
| N#C[C@@]12C[C@@H]1[C@@H](n1cnc3c(NC4CCCC4)nc(I)nc31)[C@H](O)[C@@H]2O | Htr2c (Mus musculus, UniProt P34968) | antagonist, Gq dissociation BRET |  | mouse receptor | Kb | 0.0244 µM |
| CN(C)C(=O)c1c[nH]cc1S(=O)(=O)Nc1ccc(C(F)(F)F)c(Cl)c1 | DRD2 |  |  |  | IC50 | > 100 µM |
| CCCCC[C@H](O)/C=C/[C@H]1[C@H](O)CC(=O)[C@@H]1C/C=C\CCCC(=O)O | PTGER1 (Homo sapiens, UniProt P34995, H145A) | IP1 accumulation, agonist | AD293 | EP1 H145A mutant | EC50 | 0.00219 µM |
| Cc1[nH]c(C)c(S(=O)(=O)Nc2ccc(B3OC(C)(C)C(C)(C)O3)cc2)c1C(=O)N1CCC(F)(F)C1 | DRD2 |  |  |  | IC50 | > 100 µM |
| CN1CCN(c2ccc(Nc3ncc4cc(C#N)c(=O)n(C5CCCC5)c4n3)cc2)CC1 | Cyclin-dependent kinase 6, with cyclin D3 (CDK6, Homo sapiens, UniProt Q00534) |  |  |  | IC50 | 0.0346 µM |
| Nc1ccccc1NC(=O)c1ccc(CNC(=O)OCc2cccnc2)cc1 | ISOC2 | inhibitor, competition pulldown | SW620 and MV4-11 lysate | 1 h | Kd | > 30.2 µM |
| CNC(=O)c1c(C)[nH]c(C)c1S(=O)(=O)Nc1ccc(C(F)(F)F)c(Cl)c1 | DRD2 |  |  |  | IC50 | > 100 µM |
| CCN(CC)Cc1ccc2cc(COC(=O)Nc3ccc(C(=O)NO)cc3)ccc2c1 | ISOC2 | inhibitor, competition pulldown | SW620 and MV4-11 lysate | 1 h | Kd | > 30.2 µM |
| Cc1[nH]c(C)c(S(=O)(=O)Nc2ccc(C(F)(F)F)c(Cl)c2)c1C(=O)N1C2CCC1CC2 | DRD2 |  |  |  | IC50 | > 100 µM |

Excerpt of the above:
| Structure (SMILES) | target | assay | test system | setting | quantity | value |
| --- | --- | --- | --- | --- | --- | --- |
| Cc1[nH]c(C)c(S(=O)(=O)Nc2ccc(B3OC(C)(C)C(C)(C)O3)cc2)c1C(=O)N1CCC(F)(F)C1 | DRD2 |  |  |  | IC50 | > 100 µM |
| CN1CCN(c2ccc(Nc3ncc4cc(C#N)c(=O)n(C5CCCC5)c4n3)cc2)CC1 | Cyclin-dependent kinase 6, with cyclin D3 (CDK6, Homo sapiens, UniProt Q00534) |  |  |  | IC50 | 0.0346 µM |
